Results of several laboratories.
Numbered parts are unrelated; each lists some results of a single study. Substitutions count along the parent as printed.
Sequence of UniProt Q93YR9 (whole entry, looked up): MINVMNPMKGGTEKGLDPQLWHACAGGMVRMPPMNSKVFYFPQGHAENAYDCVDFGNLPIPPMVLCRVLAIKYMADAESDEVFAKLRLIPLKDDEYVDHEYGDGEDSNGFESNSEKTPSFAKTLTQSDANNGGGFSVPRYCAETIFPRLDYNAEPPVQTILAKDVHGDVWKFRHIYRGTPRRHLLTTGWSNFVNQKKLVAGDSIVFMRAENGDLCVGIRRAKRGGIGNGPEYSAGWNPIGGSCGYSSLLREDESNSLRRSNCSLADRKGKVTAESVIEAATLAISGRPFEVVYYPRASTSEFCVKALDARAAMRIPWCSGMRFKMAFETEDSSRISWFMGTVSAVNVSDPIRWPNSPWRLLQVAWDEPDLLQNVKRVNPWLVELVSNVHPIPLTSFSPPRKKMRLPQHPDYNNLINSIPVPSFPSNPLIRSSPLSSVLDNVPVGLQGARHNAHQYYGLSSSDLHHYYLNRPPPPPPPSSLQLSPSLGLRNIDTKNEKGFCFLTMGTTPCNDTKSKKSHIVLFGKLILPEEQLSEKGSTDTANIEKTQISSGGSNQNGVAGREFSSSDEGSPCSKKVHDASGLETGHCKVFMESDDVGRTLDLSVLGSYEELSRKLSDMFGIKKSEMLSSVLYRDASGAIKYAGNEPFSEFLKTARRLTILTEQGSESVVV
Sequence of UniProt Q9C5X0 (whole entry, looked up): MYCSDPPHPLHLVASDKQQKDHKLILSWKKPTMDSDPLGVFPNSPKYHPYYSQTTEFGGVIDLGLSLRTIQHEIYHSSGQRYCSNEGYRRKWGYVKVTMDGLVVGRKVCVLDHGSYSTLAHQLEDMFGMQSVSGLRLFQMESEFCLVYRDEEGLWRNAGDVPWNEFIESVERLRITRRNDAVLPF
Sequence of UniProt Q84WU6 (whole entry, looked up): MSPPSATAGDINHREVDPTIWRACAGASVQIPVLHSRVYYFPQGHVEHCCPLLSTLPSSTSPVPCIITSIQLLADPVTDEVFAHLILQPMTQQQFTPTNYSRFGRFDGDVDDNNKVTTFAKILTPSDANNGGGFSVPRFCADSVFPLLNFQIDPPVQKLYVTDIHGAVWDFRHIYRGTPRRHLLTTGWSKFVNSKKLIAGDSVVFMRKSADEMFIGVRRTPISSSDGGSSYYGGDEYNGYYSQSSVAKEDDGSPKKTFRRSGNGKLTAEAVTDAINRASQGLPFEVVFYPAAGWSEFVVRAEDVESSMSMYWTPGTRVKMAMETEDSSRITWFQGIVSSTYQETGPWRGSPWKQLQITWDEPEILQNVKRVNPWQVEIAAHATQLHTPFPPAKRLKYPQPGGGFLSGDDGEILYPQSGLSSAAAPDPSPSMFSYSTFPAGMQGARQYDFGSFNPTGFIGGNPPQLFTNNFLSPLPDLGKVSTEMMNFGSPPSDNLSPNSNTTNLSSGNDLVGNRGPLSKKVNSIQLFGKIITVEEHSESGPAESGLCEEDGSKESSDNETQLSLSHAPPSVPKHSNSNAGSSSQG
Sequence of UniProt Q8LAL2 (whole entry, looked up): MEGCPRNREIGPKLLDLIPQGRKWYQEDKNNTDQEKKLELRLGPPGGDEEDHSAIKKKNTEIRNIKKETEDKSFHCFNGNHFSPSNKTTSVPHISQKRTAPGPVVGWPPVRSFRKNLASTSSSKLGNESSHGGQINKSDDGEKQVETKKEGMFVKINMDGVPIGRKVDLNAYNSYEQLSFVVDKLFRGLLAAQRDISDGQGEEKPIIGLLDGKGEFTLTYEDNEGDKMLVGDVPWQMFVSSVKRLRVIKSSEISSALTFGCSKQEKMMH
Sequence of UniProt Q9FKM7 (whole entry, looked up): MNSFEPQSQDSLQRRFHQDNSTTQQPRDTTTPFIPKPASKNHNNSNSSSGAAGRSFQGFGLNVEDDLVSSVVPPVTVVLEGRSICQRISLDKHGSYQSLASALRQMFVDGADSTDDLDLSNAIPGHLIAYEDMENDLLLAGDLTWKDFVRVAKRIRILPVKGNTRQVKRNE
Sequence of UniProt Q9LQE8 (whole entry, looked up): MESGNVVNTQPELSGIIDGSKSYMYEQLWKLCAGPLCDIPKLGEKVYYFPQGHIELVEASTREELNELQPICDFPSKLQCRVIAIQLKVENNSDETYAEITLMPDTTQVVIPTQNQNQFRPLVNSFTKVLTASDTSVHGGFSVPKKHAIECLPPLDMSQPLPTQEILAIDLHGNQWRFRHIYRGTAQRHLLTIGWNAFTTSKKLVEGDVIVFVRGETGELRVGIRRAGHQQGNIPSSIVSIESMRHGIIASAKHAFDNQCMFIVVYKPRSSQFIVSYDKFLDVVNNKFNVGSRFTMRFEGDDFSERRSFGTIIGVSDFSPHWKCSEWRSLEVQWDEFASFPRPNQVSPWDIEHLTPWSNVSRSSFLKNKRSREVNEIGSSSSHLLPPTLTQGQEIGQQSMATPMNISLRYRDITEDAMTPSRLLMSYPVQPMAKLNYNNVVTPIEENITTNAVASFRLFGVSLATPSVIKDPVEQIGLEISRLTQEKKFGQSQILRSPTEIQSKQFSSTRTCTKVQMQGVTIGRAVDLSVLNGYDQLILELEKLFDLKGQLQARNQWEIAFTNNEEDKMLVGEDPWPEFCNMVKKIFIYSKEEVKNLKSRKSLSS

Block 1
Target: ABI1, truncated, D143A, DHFR fusion (Arabidopsis thaliana)
Method: DHFR PCA, deep sequencing
Matrix: yeast
Notes: methotrexate growth selection, single substitutions
Added: (+)-ABA 0.11 µM
Baseline: wild-type fitted maximum
Direction: higher = stronger binding
Starting sequence: PYL1, truncated, DHFR fusion (Arabidopsis thaliana); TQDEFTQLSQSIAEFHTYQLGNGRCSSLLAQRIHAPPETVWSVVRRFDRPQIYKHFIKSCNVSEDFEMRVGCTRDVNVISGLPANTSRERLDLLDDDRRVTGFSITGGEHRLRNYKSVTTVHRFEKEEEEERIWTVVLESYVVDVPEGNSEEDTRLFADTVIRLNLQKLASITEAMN; partner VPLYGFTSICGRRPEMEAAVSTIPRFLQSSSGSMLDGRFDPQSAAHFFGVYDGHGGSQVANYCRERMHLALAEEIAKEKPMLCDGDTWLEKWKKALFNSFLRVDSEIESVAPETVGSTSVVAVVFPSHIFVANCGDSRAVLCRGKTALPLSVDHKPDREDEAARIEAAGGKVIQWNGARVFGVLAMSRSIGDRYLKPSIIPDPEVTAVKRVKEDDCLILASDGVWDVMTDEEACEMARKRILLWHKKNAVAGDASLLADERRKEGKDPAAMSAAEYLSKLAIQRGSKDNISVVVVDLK
Change	relative binding score [%]
F124H	4.65
D48R	-3.82
H16Q	-0.433
R45M	-8.9
S171N	39
I172A	-5.42
S117W	-4.95
M68D	-0.719
E14Q	13.6
A84M	61.1
P83C	13.1
D153F	-15.7
E130M	10.7
A175G	39.7
S171T	46.1
K58Q	13.1
D75S	24.9
L94G	-4.26
L169A	9.94
N77E	64.3

Block 2
Molecule: B1 (IAA10)
Method: two-hybrid
Direction: higher = firmer interaction
B1: IAA10 (Arabidopsis thaliana, UniProt Q38828); chain MNGLQEVCSSSGSVMIGLPAEEDENAAHSSEDSSCPDESVSETELDLALGLSIGRRKVRSSLSSSSSSLTRESGTKRSADSSPAAASNATRQVAVGWPPLRTYRINSLVNQAKSLATEGGLSSGIQKETTKSVVVAAKNDDACFIKSSRTSMLVKVTMDGVIIGRKVDLNALDSYAALEKTLDLMFFQIPSPVTRSNTQGYKTIKETCTSKLLDGSSEYIITYQDKDGDWMLVGDVPWQMFLGSVTRLRIMKTSIGAGVGK
partner	setting	scale	positive tests
ARF17 (Arabidopsis thaliana, UniProt Q84WU6)	weak activation fusion	baseline: out of 3 tests	0
ARF14 497-605 (Arabidopsis thaliana, UniProt Q9LQE8)		baseline: out of 2 tests	0
IAA33 (Arabidopsis thaliana, UniProt Q9FKM7)		baseline: out of 2 tests	0
IAA34 (Arabidopsis thaliana, UniProt Q9C5X0)		baseline: out of 4 tests	3
ARF16 570-670 (Arabidopsis thaliana, UniProt Q93YR9)		baseline: out of 4 tests	0
IAA26 (Arabidopsis thaliana, UniProt Q8LAL2)		baseline: out of 2 tests	0

Block 3
Target: CCNA2, cyclin fold, Cln2 fusion (human)
Method: yeast growth competition, sequencing
Matrix: yeast
Notes: strong parent motif
Baseline: not given
Direction: higher = stronger binding
Starting sequence: RB1 docking peptide (human); PKPLKKLRFDIEG
Change	normalised enrichment score
PKPKKKLRFDIEG [L4K]	3.01
PKPLKKLRLDIEG [F9L]	0.204
PKPLYKLRFDIEG [K5Y]	0.833
PKPLKKLRFDLEG [I11L]	2.11
PKPLKKLREDIEG [F9E]	-0.429
PAPLKKLRFDIEG [K2A]	1.11
PKFLKKLRFDIEG [P3F]	1.19
PKPLKKLFFDIEG [R8F]	1.39
PKPLKKLRFGIEG [D10G]	3.77
PKPLKKVRFDIEG [L7V]	1.48
PKPLQKLRFDIEG [K5Q]	0.857
PKPLKKLRFDIEN [G13N]	0.346
PKPLKKLRFDIET [G13T]	0.432
PKPLKKPRFDIEG [L7P]	0.708
PKILKKLRFDIEG [P3I]	1.05
PKPLVKLRFDIEG [K5V]	-0.0384
PKPLKKYRFDIEG [L7Y]	0.106
PKLLKKLRFDIEG [P3L]	1.53
PKPLKKLRFDIEM [G13M]	1.13
YKPLKKLRFDIEG [P1Y]	1
PKPLKFLRFDIEG [K6F]	1.15
PKPLKQLRFDIEG [K6Q]	1.37
PKPLKKLRADIEG [F9A]	1.05
PKPLKKLRFCIEG [D10C]	0.314
PKPLKKLRFDIEK [G13K]	1.48

Block 4
Target: RING finger protein unkempt homolog, zinc fingers 1-6, GST-SBP tag (UNK, Homo sapiens, UniProt Q9C0B0, residues 30-357)
Method: RNA Bind-n-Seq
Molecule type: RNA
Matrix: in vitro
Tested at: not given
Notes: RNA with constant flanks, human-mouse chimeric sites, ends assumed
Baseline: input RNA pool
Direction: higher = stronger binding
Construct (chain): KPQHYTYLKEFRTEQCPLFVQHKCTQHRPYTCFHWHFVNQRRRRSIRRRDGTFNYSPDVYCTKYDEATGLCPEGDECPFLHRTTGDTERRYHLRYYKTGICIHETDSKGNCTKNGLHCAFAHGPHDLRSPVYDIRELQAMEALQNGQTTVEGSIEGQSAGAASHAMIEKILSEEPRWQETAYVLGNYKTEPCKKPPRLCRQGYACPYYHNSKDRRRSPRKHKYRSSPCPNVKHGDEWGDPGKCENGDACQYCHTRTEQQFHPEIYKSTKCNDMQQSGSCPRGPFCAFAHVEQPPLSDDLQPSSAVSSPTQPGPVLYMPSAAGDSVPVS
Sequence	bound/input enrichment [ratio]
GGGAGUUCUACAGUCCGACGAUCAAAGAGAAACUAAAGCAAACUGAUUGAAAGAGGAUUGGCAAAGAGAAUUUCAUAGAGGAAACUAGGAUUAUUAGCAAACAUGAGUUAUAUUCCAGAGCGUCUCAGAAACCCCAGCCAAACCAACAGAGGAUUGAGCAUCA	2.66
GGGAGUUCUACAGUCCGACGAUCGCAAAGGAUGAUGAGGCGGCAGCUGUUGCCCUUUCCUCUCUCGUUCAUGCUUUGGAUGAGUUAAACAUGGUGGCCAUCGUCCGAUAUGCUUAUGACAAAAGAUCUAAUCCUCAAGUUGGUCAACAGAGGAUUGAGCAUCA	0.233
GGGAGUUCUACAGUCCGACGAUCAGAGAAAUGAGAAAGAAUCUUACACAAGAAGAGAUGCAAAGAAUGUCUACUAGAGUCCUUUUGGCGACUCUUUCCAUUCCUAUUACUCCUGAGCGUACGGAUAUUGCUCGACUUUUGGAUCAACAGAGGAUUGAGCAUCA	0.125
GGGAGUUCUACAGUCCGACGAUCGCGGCAGAAUCAUGGAGGACAUAAUGCACUUGCCCAGAGCGCGCGUCAACGCCAGCAUGUUACCACAGUAUAUCGACCGGCCCGUGUGCUUCGUGGGGAAGCUGGAAAAGAUUCAUCCCACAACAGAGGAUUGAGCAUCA	0.0839
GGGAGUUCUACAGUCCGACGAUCACCUCCCCCUCCCGCCUCACCCCACCCCCGCUUUUUGGAAAGUUUUUGGCUUUUUUUUUCCUUCCCCAUACAAAGUGGUUUUUACCACCCCCGCAAGGGUCUAUCGAAGGGCUUGACGGACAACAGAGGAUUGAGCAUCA	0.672
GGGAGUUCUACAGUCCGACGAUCGUAAUGUUUAUUCAUUUAACUUAUUUUUAUAGCUAGAUAAAUAUUGUUAGUCUUAGACAAUAGCUCACAUUUUUUGAAAAGCAUGCUCUCCCUGUCCAUUUGUCUUAUAACAUGACCCAGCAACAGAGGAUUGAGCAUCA	31.8
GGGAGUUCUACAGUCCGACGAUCAGAAUCUUGGGACUGUUUUACUUAAUUGGUCAUUGAUAGCUUAACAAGCAUGGAGAUAAGAUUAGAAAUCUUGACAUCAACAAGUAUUAAGCAGAAAAAACCAUGGCCACGUGUCUCCUGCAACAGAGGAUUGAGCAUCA	0.109
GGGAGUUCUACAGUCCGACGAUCGAUCAUGGAACCAGAAUAGAAAUGAAGAUGAGAUUACCCAGACGAGCCAAAACAGCUGCGCUACAGAAAAGUAAACUUAACCUUGCACCAAUUUCUCAUGAAGAUACAAGUUAAGAGAGCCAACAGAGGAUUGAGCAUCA	0.63
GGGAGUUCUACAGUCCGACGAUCAAUUUCCUGUCAUACUUUUUAGACAUUCACAUCAGACUUACAGAGCACCUGGCCACAUUCUAGGUUUGUGUUAUUUCUAAGCCUUUUAUAUGAUCAAAUGAGAACACUGCUUAACUAAUGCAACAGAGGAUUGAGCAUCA	0.356
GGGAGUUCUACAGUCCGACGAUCGUAGCUGGGACUACAGAAAUGCUGGUAAUUUCAGUCACUUGCUGAUGACUUCUGAUGACCUAGCAAAUGUUGGCAUUGUUGACUGCUGAGAAGAUACACUCGCAAGGCCACGUCUAAGGUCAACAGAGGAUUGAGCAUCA	0.0978
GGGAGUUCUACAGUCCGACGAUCUAUCCAACUUUCUUGCCACAUUUUGAAUUCCAAGACAUUAUUCCUCCAGAUGACUUUCUAACGAGUGAUGAAGAGCAAGAUUUGGUUUUAUUUGGAACUAUGAGAGGACAAGUUGUUGGACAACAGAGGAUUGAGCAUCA	0.125

Block 5
Target: CREB3L2, bZIP domain (human)
Method: DHFR protein complementation
Matrix: yeast
Notes: single substitutions, most at no-binding floor
Baseline: wild-type JUN-FOS pair
Direction: higher = stronger binding
Starting sequence: JUN, bZIP domain (human); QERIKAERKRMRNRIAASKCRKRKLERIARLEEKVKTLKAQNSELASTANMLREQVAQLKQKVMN; partner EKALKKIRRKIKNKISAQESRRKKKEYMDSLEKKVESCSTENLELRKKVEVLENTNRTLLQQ
Change	binding fitness
A29G	-1.38 natural log
K39G	-1.52 natural log
S47G	-1.46 natural log
A57M	-1.37 natural log
L31G	-1.48 natural log
V56H	-1.57 natural log
E33I	-1.57 natural log
L38K	-1.56 natural log
I28L	-1.46 natural log
M51C	-1.52 natural log
E33W	-1.49 natural log
K34V	-1.51 natural log
V35F	-1.51 natural log
E32Q	-1.19 natural log
S47R	-1.35 natural log
E33F	-1.51 natural log
V56Q	-1.49 natural log

For quick reference, copied from above (block 1):
Change	relative binding score [%]
D75S	24.9
H16Q	-0.433
A84M	61.1
S171T	46.1
F124H	4.65
M68D	-0.719
L94G	-4.26
K58Q	13.1
L169A	9.94
P83C	13.1
D48R	-3.82
E14Q	13.6
E130M	10.7
